Measured values gathered from unrelated publications.
Numbered parts are unrelated; each lists some results of a single study.
Sequence of UniProt Q16659 (whole entry, looked up): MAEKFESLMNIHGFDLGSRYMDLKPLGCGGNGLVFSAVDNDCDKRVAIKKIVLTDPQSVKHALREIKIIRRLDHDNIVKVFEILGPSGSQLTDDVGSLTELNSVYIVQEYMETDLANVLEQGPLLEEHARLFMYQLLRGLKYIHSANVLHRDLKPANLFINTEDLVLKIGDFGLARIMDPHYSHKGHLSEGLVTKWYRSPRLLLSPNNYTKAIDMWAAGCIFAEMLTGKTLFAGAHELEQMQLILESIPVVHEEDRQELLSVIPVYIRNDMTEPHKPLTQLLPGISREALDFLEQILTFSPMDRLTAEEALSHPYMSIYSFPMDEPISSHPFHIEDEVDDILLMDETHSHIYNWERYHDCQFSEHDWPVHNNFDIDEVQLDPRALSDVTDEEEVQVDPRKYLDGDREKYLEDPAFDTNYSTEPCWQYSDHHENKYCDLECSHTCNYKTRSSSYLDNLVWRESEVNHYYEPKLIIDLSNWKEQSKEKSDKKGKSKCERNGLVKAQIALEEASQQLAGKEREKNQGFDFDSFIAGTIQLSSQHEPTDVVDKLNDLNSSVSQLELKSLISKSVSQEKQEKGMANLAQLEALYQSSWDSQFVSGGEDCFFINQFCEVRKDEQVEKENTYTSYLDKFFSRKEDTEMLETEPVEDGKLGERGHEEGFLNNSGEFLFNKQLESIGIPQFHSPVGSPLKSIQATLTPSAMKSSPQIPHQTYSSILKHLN
Sequence of UniProt Q14831 (whole entry, looked up): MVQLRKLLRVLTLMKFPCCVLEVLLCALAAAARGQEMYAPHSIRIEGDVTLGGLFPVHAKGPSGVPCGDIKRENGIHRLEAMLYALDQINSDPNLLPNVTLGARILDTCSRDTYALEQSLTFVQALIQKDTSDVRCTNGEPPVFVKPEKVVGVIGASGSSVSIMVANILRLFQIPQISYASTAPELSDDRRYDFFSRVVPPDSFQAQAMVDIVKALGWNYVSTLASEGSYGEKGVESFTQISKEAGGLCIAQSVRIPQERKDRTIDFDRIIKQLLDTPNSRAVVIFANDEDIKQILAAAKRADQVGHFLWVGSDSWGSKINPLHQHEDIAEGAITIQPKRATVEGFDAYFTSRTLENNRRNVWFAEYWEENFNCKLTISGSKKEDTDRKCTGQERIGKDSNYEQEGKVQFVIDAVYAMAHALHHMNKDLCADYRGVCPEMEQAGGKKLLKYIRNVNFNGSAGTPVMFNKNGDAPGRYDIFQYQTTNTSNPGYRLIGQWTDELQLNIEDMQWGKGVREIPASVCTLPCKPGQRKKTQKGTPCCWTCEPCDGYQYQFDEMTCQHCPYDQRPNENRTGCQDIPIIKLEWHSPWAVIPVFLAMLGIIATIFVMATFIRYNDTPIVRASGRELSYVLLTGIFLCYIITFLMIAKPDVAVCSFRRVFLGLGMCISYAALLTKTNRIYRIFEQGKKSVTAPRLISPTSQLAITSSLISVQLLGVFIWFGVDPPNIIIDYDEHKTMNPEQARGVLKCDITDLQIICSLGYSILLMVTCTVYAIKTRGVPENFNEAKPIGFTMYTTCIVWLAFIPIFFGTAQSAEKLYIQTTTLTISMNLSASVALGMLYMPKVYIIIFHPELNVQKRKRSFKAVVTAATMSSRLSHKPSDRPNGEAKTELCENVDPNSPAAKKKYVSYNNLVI
Sequence of UniProt Q2M2I8 (whole entry, looked up): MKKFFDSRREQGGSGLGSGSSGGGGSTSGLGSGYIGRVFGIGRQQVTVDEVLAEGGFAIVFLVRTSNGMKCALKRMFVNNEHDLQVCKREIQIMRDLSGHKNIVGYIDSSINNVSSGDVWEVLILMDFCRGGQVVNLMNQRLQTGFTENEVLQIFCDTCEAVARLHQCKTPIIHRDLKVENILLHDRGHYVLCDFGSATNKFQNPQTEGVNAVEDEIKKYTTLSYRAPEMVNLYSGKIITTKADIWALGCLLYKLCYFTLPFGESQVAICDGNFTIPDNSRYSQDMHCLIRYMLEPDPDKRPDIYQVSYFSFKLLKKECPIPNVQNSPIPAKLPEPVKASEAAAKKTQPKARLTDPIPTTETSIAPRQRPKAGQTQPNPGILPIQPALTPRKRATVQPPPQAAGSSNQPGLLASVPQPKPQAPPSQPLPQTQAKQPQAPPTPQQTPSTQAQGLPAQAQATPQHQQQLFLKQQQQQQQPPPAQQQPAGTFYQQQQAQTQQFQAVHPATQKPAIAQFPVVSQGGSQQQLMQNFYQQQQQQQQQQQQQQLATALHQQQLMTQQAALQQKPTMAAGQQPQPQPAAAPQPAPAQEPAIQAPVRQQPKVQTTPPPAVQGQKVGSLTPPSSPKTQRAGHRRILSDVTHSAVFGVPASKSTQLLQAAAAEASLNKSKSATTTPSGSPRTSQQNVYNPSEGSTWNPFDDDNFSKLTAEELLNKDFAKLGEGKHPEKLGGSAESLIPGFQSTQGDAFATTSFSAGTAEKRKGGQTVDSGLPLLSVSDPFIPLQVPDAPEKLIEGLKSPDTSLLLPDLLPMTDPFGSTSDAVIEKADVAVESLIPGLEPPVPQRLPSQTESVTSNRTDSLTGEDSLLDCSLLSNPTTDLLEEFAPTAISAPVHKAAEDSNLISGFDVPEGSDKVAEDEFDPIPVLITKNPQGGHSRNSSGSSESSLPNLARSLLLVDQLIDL
Sequence of UniProt O75676 (whole entry, looked up): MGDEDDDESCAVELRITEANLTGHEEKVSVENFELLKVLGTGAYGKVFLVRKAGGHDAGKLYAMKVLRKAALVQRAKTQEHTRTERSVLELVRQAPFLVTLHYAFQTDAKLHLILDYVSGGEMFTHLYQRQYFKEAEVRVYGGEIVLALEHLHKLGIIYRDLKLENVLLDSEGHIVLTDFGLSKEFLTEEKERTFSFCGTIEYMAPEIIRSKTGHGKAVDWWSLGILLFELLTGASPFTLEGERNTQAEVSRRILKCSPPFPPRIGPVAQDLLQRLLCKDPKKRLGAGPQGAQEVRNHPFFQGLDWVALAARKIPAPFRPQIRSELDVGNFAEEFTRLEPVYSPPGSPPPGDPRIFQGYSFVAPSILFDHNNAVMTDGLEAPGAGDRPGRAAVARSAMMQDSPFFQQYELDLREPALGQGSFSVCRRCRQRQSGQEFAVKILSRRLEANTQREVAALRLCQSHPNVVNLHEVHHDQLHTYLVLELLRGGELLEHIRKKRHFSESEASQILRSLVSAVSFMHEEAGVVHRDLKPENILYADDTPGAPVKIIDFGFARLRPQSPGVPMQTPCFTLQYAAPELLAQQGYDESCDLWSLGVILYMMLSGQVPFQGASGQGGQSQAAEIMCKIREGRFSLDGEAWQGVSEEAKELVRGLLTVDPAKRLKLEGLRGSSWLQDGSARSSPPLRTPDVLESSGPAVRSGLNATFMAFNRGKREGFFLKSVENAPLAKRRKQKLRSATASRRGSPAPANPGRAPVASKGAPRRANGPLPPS
Sequence of UniProt Q13188 (whole entry, looked up): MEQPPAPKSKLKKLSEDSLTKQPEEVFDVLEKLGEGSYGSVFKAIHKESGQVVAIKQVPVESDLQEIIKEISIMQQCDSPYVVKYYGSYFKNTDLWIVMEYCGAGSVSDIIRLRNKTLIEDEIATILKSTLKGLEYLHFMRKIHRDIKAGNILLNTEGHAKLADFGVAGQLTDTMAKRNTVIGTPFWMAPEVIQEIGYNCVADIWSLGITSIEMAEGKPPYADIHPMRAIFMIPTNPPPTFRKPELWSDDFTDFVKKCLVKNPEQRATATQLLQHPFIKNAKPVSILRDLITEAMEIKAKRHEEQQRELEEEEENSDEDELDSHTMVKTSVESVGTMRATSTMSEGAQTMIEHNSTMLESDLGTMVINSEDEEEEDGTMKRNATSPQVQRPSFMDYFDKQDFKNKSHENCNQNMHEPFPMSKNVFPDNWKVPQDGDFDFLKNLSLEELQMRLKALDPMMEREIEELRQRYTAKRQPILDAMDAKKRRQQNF
Sequence of UniProt Q96LB2 (whole entry, looked up): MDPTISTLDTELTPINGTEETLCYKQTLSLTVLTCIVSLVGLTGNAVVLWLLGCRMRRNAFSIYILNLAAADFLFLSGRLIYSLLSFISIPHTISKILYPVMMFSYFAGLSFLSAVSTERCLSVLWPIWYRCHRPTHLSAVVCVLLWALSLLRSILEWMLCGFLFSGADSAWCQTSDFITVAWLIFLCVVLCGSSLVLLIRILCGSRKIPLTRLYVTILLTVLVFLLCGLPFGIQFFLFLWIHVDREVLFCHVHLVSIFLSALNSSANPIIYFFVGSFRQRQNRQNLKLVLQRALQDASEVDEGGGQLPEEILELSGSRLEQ
Sequence of UniProt Q8NFN8 (whole entry, looked up): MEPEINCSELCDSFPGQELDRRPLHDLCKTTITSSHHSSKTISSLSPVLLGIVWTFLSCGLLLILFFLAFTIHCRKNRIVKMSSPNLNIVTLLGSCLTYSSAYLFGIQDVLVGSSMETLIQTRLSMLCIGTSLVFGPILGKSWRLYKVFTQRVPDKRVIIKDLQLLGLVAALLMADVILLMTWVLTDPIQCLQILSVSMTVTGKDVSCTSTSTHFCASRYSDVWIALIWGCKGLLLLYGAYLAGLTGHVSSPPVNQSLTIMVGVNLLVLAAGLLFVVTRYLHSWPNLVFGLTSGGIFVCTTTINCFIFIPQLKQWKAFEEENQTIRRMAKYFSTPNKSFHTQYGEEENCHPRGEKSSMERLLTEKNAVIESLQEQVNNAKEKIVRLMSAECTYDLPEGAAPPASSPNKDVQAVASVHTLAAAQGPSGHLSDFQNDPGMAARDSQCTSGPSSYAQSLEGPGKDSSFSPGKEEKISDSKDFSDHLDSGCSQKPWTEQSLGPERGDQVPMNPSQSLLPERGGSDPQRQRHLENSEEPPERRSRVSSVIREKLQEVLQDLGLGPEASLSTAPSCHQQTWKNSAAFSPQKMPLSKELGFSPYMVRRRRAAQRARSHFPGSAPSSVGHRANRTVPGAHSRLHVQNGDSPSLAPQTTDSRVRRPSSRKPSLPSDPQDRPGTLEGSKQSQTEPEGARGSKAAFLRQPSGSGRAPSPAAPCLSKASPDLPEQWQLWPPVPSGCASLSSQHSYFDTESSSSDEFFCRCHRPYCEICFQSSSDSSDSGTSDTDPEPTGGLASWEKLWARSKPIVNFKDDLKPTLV

Series 1 — tested at: 1 µM
Structure (SMILES): CNCc1ccccc1-c1csc([C@H](C)Nc2nc(C)nc3cc(OC)c(OC)cc23)c1
STK4 (Homo sapiens, UniProt Q13043); cell-free assay, competition with immobilised ligand — remaining binding: 100%.
It gave 100% for remaining binding (CIT (Homo sapiens, UniProt O14578); cell-free assay, competition with immobilised ligand).
It gave 100% for remaining binding (NEK7 (Homo sapiens, UniProt Q8TDX7); cell-free assay, competition with immobilised ligand).
The remaining binding was 100% (Ribosomal protein S6 kinase alpha-4, N-terminal kinase domain (RPS6KA4, Homo sapiens, UniProt O75676); cell-free assay, competition with immobilised ligand).
It gave 100% for remaining binding (SRC (Homo sapiens, UniProt P12931); cell-free assay, competition with immobilised ligand).
The remaining binding was 94% (AAK1 (Homo sapiens, UniProt Q2M2I8); binding).
It gave 100% for remaining binding (Tyrosine-protein kinase ABL1, phosphorylated (ABL1, Homo sapiens, UniProt P00519); cell-free assay, competition with immobilised ligand).
BMX (Homo sapiens, UniProt P51813); cell-free assay, competition with immobilised ligand — remaining binding: 58%.
The remaining binding was 100% (MAPK6 (Homo sapiens, UniProt Q16659); cell-free assay, competition with immobilised ligand).
For TNNI3K (Homo sapiens, UniProt Q59H18); cell-free assay, competition with immobilised ligand: remaining binding read 100%.
The remaining binding was 100% (CDK9 (Homo sapiens, UniProt P50750); cell-free assay, competition with immobilised ligand).
RAF1 (Homo sapiens, UniProt P04049); cell-free assay, competition with immobilised ligand — remaining binding: 65%.
For MAP3K14 (Homo sapiens, UniProt Q99558); cell-free assay, competition with immobilised ligand: remaining binding read 100%.
The remaining binding was 89% (STK3 (Homo sapiens, UniProt Q13188); cell-free assay, competition with immobilised ligand).
It gave 85% for remaining binding (TNK1 (Homo sapiens, UniProt Q13470); cell-free assay, competition with immobilised ligand).

Series 2 — observed: enzyme activity; action: inhibitor; tested at: 0.5 µM; baseline: control
Target: Serine/threonine-protein kinase BRSK2 (BRSK2, Homo sapiens, UniProt Q8IWQ3)
Residues (Q8IWQ3 1-736): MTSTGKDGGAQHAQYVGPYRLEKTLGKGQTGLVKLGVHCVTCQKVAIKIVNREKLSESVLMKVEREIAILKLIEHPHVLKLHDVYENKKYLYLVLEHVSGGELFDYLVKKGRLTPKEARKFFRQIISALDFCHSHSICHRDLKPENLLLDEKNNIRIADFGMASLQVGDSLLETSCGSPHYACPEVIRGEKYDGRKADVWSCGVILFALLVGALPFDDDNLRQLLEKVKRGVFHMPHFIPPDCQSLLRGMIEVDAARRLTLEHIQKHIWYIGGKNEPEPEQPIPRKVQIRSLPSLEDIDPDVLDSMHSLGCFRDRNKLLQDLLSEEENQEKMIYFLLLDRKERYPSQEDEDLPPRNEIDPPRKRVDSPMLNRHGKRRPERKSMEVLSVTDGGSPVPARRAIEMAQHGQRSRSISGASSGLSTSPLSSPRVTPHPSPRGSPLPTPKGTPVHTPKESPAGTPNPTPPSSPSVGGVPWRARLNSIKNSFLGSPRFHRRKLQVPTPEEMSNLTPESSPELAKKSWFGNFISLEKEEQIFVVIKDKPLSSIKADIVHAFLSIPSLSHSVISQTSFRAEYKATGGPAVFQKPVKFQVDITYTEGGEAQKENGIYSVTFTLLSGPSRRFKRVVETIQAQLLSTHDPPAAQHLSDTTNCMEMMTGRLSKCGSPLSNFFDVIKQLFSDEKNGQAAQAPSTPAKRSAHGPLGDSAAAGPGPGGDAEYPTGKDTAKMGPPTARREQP
With `N#Cc1cnc2cnc(NCc3cccnc3)cc2c1Nc1ccc(F)c(Cl)c1` the remaining activity was 100%.
With `O=Nc1c(-c2c(O)[nH]c3cc(Br)ccc23)[nH]c2ccccc12` the remaining activity was 19.4%.
`O=C(c1cc2cc(O)ccc2[nH]1)c1cc2cc(O)ccc2[nH]1` has a remaining activity of 44.3%.
With `CCCNC(=O)Nc1ccc(Oc2ncnc3cc(OC)c(OC)cc23)cc1Cl` the remaining activity was 96.7%.
With `O=C1NC(=O)c2c1c1c3ccccc3[nH]c1c1[nH]c3cc(Br)ccc3c21` the remaining activity was 35.6%.
`Oc1cccc(-c2nc(N3CCOCC3)c3oc4ncccc4c3n2)c1` gave a remaining activity of 97.1%.
`Cc1cc(Nc2cc(N3CCN(C)CC3)nc(Sc3ccc(NC(=O)C4CC4)cc3)n2)[nH]n1` gave a remaining activity of 89.6%.
`COc1ccc2c(c1)c(C1=C(c3c[nH]c4ccccc34)C(=O)NC1=O)cn2CCCN(C)C` gave a remaining activity of 61.3%.
For `O=c1cc(N2CCOCC2)oc2c(-c3ccccc3)cccc12`, the remaining activity was 96.2%.
For `O=C1Nc2ccccc2/C1=C\c1c(Cl)[nH]c2ccccc12`, the remaining activity was 96.2%.
`c1ccc2c(-c3ccncc3)c[nH]c2c1` gave a remaining activity of 98.6%.
`O=C1Cc2c([nH]c3ccc(Br)cc23)-c2ccccc2N1` gave a remaining activity of 62.7%.
`O=C1NC(=O)c2c1c1c3ccccc3[nH]c1n1cncc21` has a remaining activity of 29.7%.
With `c1ccc(-c2n[nH]c3c2oc2ccccc23)cc1` the remaining activity was 101%.
With `Cc1ccc(S(=O)(=O)/C=C/C#N)cc1` the remaining activity was 99.4%.
`CCCCc1c(-c2ccc(OC)cc2)[nH]c2nccnc12` has a remaining activity of 90.8%.
For `O=C1Nc2ccc(Br)cc2/C1=C/c1cc2c([nH]1)CCCC2`, the remaining activity was 93.8%.
For `CN1CCN(c2ccc3nc(-c4c(N)c5c(F)cccc5[nH]c4=O)[nH]c3c2)CC1`, the remaining activity was 59.4%.

Series 3 — observed: β-arrestin recruitment; action: agonist; method: PRESTO-Tango; tested at: 10 µM; baseline: untreated
Compound: N=C(N)NC(=O)c1cnn(-c2cccc3ncccc23)c1C1CC1
GRM7 (Homo sapiens, UniProt Q14831) — “fold over basal”: 0.74 fold.
For Trace amine-associated receptor 8 (TAAR8, Homo sapiens, UniProt Q969N4): “fold over basal” read 1.03 fold.
It gave 0.83 for “fold over basal” (SSTR2 (Homo sapiens, UniProt P30874)).
For NTSR2 (Homo sapiens, UniProt O95665): “fold over basal” read 1.3.
For F2RL3 (Homo sapiens, UniProt Q96RI0): “fold over basal” read 1 fold.
For HRH4 (Homo sapiens, UniProt Q9H3N8): “fold over basal” read 1.13 fold.
For GPR84 (Homo sapiens, UniProt Q9NQS5): “fold over basal” read 1.38.
The “fold over basal” was 1.05 fold (HRH1 (Homo sapiens, UniProt P35367)).
CRHR1 (Homo sapiens, UniProt P34998) — “fold over basal”: 2.16.
The “fold over basal” was 1.01 (Probable G-protein coupled receptor 156 (GPR156, Homo sapiens, UniProt Q8NFN8)).
It gave 1.01 for “fold over basal” (MRGPRX1 (Homo sapiens, UniProt Q96LB2)).
LHCGR (Homo sapiens, UniProt P22888) — “fold over basal”: 1.04 fold.
The “fold over basal” was 0.72 fold (HCAR1 (Homo sapiens, UniProt Q9BXC0)).
G-protein coupled receptor family C group 5 member D (GPRC5D, Homo sapiens, UniProt Q9NZD1) — “fold over basal”: 0.52.
Motilin receptor (MLNR, Homo sapiens, UniProt O43193) — “fold over basal”: 0.72.
MC2R (Homo sapiens, UniProt Q01718) — “fold over basal”: 1.29.

Series 4 — species: human; medium: microsomes or S9; tested at: 2 µM; time: 0.5 h
`CS(=O)(=O)N[C@H]1CC[C@H](Nc2ncnc3[nH]cc(-c4cc(Cl)c(O)c(Cl)c4)c23)CC1` has a remaining compound of > 100%.
For `O=C(O)C1CC[C@@H](c2ccccc2)N1C(=O)C1CCCS1(=O)=O` (some centres unmarked), the remaining compound was > 100%.
The remaining compound of `O=C1CCC(=O)N1OCCCOc1ccc2c(c1)CCC2` is reported as 42.7%.
With `c1ccc(-c2ccc3ccnc(N4CCCCC4)c3c2)cc1` the remaining compound was 12.4%.
For `COc1ccc(Nc2nc(NCCN3CCOCC3)nc(Nc3ccc(OC)cc3)n2)cc1`, the remaining compound was 28.6%.
The remaining compound of `CCOC(=O)Nc1cc(-n2c(=O)nc(N(C)C)n(C)c2=O)c(F)cc1Cl` is reported as > 99.9%.
For `Fc1ccc(Cn2nnc3c2ncn2cnnc32)cc1`, the remaining compound was 60.4%.
With `N#Cc1ccc(C(=O)N2CCC(N(Cc3ccccc3)C(=O)c3ccc(C#N)[nH]3)C2)[nH]1` (centres unmarked) the remaining compound was 66.1%.
With `O=C(C1CCC1)N(C1CCCCC1)C1CCCCC1` the remaining compound was 3.27%.
`CNC(=O)Nc1ccc(C)n(CC(=O)NCCC(C)C)c1=O` has a remaining compound of > 100%.
The remaining compound of `Cc1nn(C)c2nc(NCC[C@@H]3CCCN4CCCC[C@H]34)sc12` is reported as 69.7%.
The remaining compound of `COc1ccc(-c2cc(-c3nc4c5c(ncn4n3)CCC5)n[nH]2)cc1` is reported as 10.3%.
`COc1ccc2c(cc(C(=O)Nc3ccccc3OCC3CCCCO3)n2C)c1OC` (centres unmarked) has a remaining compound of 18%.
